Results pooled from the literature.
Protocols differ between the studies behind these lines. Several values in a cell are separate wells, animals, samples, runs or records. ± marks the error that the study gave.
Chain of UniProt P05181 (whole entry, looked up): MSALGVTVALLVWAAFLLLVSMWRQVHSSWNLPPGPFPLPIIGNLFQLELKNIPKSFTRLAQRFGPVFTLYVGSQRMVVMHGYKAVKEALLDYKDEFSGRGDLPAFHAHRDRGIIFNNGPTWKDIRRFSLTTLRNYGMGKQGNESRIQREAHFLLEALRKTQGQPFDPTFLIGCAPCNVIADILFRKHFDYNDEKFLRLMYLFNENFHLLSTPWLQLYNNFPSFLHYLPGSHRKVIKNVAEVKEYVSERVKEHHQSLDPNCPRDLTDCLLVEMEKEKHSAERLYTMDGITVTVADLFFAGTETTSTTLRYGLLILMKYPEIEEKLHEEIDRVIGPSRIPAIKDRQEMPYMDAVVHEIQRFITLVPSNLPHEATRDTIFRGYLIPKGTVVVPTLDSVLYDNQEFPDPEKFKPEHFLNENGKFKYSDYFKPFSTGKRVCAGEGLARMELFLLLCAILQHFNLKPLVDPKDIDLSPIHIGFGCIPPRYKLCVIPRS

Structure (SMILES)	target or system	test	test system	setting	how to read	quantity	value
CC(=O)c1c(O)c(C)c(O)c2c1OC1=CC(=O)C(=C(C)NCCCCO)C(=O)C12C (stereo not shown)	L6 rat skeletal myoblasts	cytotoxicity, Alamar Blue				IC50	13.6 µM
CN1Cc2cc(Cl)ccc2-n2c(nnc2C2CCN(c3cccc(F)n3)CC2)C1			Sprague-Dawley rats male, brainstem	intravenous, 0.03 mg/kg, 60 min		concentration	1.19 ± 0.24 ng/mL
CC(=O)NCCCC[C@@H]1NC(=O)[C@H](Cc2c[nH]c3c(C)cccc23)NC(=O)[C@H]([C@@H](C)O)NC(=O)[C@H](CC(N)=O)NC(=O)[C@@H](NC(C)=O)C(C)(C)SSC(C)(C)[C@@H](C(=O)N[C@@H](Cc2ccc(OCCN)cc2)C(=O)N[C@@H](Cc2ccc3ccccc3c2)C(=O)NC2(C(=O)N[C@@H](CCC(=O)O)C(=O)N[C@@H](CC(N)=O)C(=O)N[C@@H](Cc3cccnc3)C(=O)N(C)CC(N)=O)CCOCC2)NC1=O	human alpha-1-acid glycoprotein 0.07%	equilibrium dialysis		0.1 µM		protein binding	10.6 ± 1.9%
COC(=O)c1cc2c(=O)n3ccccc3nc2n1Cc1ccccc1	Vero	MTT		6.3 µM, 24 (unit not given)		viability	67%
CNC(=O)CC[C@H](Cc1ccccc1)NC(=O)[C@@H](Cc1ccc(Cl)cc1Cl)NC(=O)[C@H](N)Cc1ccccc1[N+](=O)[O-]	Huh-7-ACE2	CellTiter-Glo		0.000763 µM, 48 h, unit not given	relative to: DMSO	viability	0.893 and 0.961 and 0.924
CC(=O)Oc1ccc(/C=C/C(=O)Oc2ccc(C(F)(F)F)c(C(F)(F)F)c2)cc1OC(C)=O	HaCaT	MTT		24 h, 10% FBS		subcytotoxic concentration	15 µM
CC[C@H](C)[C@H](NC(=O)[C@H](CCCCN)NC(=O)CNC(=O)[C@H](CC(C)C)NC(=O)[C@H](Cc1ccccc1)NC(=O)[C@H](CCCCN)NC(=O)[C@H](CO)NC(=O)[C@H](Cc1ccccc1)NC(=O)[C@H](Cc1c[nH]c2ccccc12)NC(=O)[C@H](CCC(N)=O)NC(=O)[C@@H](NC(=O)[C@H](Cc1ccccc1)NC(=O)CCCCCNC(=O)CN1CCN(CC(=O)O)CCN(CC(=O)O)CCN(CC(=O)O)CC1)C(C)C)C(=O)N[C@@H](CCC(=O)O)C(=O)N1CCC[C@H]1C(=O)N[C@@H](CC(=O)O)C(=O)N[C@H](C(=O)N[C@@H](CO)C(=O)N[C@@H](CCC(N)=O)C(=O)N[C@H](C(=O)N[C@@H](CCC(N)=O)C(=O)N[C@@H](CC(=O)O)C(=O)N1CCC[C@H]1C(=O)N[C@@H](CC(N)=O)C(=O)N[C@@H](CC(=O)O)C(=O)N[C@@H](CCC(N)=O)C(=O)N[C@@H](Cc1ccc(O)cc1)C(=O)N[C@@H](CCC(=O)O)C(=O)N1CCC[C@H]1C(=O)N[C@@H](Cc1ccccc1)C(=O)O)C(C)C)C(C)C [copper-64 labelled]		dynamic PET	mouse both sexes, CT26 tumour, untreated, tumour	intravenous, 100 µCi/mouse, 450 s		SUVmean	0.6 SUV
CC[C@H](C)[C@H](NC(=O)[C@H](Cc1c[nH]c2ccccc12)NC(=O)[C@H](CCCCN)NC(=O)[C@H](CC(C)C)NC(=O)[C@@H](NC(=O)[C@@H](NC(=O)CNC(=O)[C@H](CCCCN)NC(=O)[C@H](Cc1c[nH]cn1)NC(=O)[C@H](CCCCN)NC(=O)[C@H](Cc1c[nH]c2ccccc12)NC(=O)[C@H](C)NC(=O)[C@H](CC(C)C)NC(=O)[C@H](CO)NC(=O)[C@@H](NC(=O)[C@H](Cc1ccc(O)cc1)NC(=O)[C@H](CCCCN)NC(=O)[C@H](CCC(N)=O)NC(=O)CNC(=O)[C@H](CCCCN)NC(=O)[C@@H](NC(=O)[C@H](C)NC(=O)[C@H](CC(C)C)NC(=O)[C@H](Cc1ccccc1)NC(=O)[C@H](CCC(N)=O)NC(=O)[C@@H](NC(=O)[C@H](CC(C)C)NC(=O)[C@H](CCCCN)NC(=O)[C@H](CCSC)NC(=O)[C@H](Cc1ccccc1)NC(=O)[C@H](C)NC(=O)[C@H](C)NC(=O)[C@@H](N)CCSC)[C@@H](C)CC)[C@@H](C)O)C(C)C)[C@@H](C)O)[C@@H](C)CC)C(=O)N[C@@H](CC(N)=O)C(N)=O	human erythrocytes	hemolysis		pH 7.2	relative to: water complete hemolysis	HD50	200 µg/mL
C#CCNC(=O)C[C@H](Cc1ccc(F)cc1)NC(=O)[C@@H](Cc1ccc(Cl)cc1Cl)NC(=O)[C@H](N)Cc1ccccc1C#N	HEK-293T	LC-MS, digitonin-released cytosol		10 µM, 4 h		cytosolic concentration	10 µM and 9.1 µM and 10.5 µM
CC(C)[C@H](NC(=O)CNC(=O)CNC(=O)[C@H](Cc1ccc(O)cc1)NC(=O)[C@H](CS)NC(=O)[C@@H](NC(=O)[C@H](Cc1c[nH]c2ccccc12)NC(=O)[C@H](Cc1ccccc1)NC(=O)[C@H](CS)NC(=O)[C@H](Cc1c[nH]c2ccccc12)NC(=O)[C@@H](N)CCCNC(=N)N)C(C)C)C(=O)N[C@@H](CS)C(=O)N[C@@H](Cc1ccc(O)cc1)C(=O)N[C@@H](CCCNC(=N)N)C(=O)N[C@@H](CCCNC(=N)N)C(=O)N[C@@H](CS)C(=O)N[C@@H](CCCNC(=N)N)C(=O)O	rat erythrocytes	haemolysis		1 h, 37 °C, 2% erythrocytes in PBS		HC50	2.98 log10 µg/mL
CN(C)CCCNC(=O)[C@@H]1NC(=O)[C@@H]2Cc3ccc(cc3)Oc3cc4cc(c3O)-c3ccc5c(c[nH]c5c3)C[C@@H](NC(=O)C(NC(=O)CCCCCN)c3ccc(O)cc3)C(=O)N[C@H](c3ccc(O)cc3)C(=O)N[C@H]4C(=O)N[C@@H](C(=O)N2C)c2ccc(cc2)Oc2cc1ccc2O (stereo partly shown)	human red blood cells		PBS	0.5 µg/mL, 1 h, pH 7.4, 37 °C		hemolysis	0%
Cc1cc(-c2ccc3ccccc3c2)nnc1NCCN1CCN(C)CC1	Cytochrome P450 2E1 (CYP2E1, Homo sapiens, UniProt P05181)	substrate	recombinant enzyme	1000 nM, 30 min		remaining compound	103%
COc1cc(/C=C/c2ccc3c(c2)[C@@H](c2cc(OC)cc(OC)c2)[C@H](c2ccc(O)cc2)O3)cc(OC)c1	dog cells			1 (unit not given)		CC50	1200 µM
Cc1ccc(NS(=O)(=O)c2c(C(=O)N3CCCCCC3)c(C)n(C)c2C)c(Cl)c1	CV-1		African green monkey cells	0.412 µM, 60 (unit not given)		viability	97.4% and 95.9%
O=C(N[C@@H](Cc1ccccc1)C(=O)N[C@@H](C[C@@H]1CCNC1=O)C(O)S(=O)(=O)O)OCc1ccccc1 (stereo partly shown)	MRC5			5 (unit not given)		CC50	98.4 ± 7.6 µM
CC[C@H](C)[C@H](NC(=O)[C@@H](NC(=O)[C@H](CCCNC(=N)N)NC(=O)[C@H](CCCNC(=N)N)NC(=O)[C@@H](NC(=O)[C@H](Cc1c[nH]c2ccccc12)NC(=O)[C@H](CCCNC(=N)N)NC(=O)[C@H](CCCNC(=N)N)NC(=O)[C@H](CC(C)C)NC(=O)[C@H](CCCNC(=N)N)NC(=O)[C@H](CCCNC(=N)N)NC(=O)[C@@H](N)C(C)C)[C@@H](C)CC)C(C)C)C(N)=O	sheep red blood cells	10% haemolysis		1 h, 37 °C		minimum haemolytic concentration	> 256 µM
CC[C@H](C)[C@H](NC(=O)[C@H](C)NC(=O)[C@H](CCCCN)NC(=O)[C@H](CCCCN)NC(=O)[C@@H](N)CCCNC(=N)N)C(=O)N[C@@H](CCCCN)C(=O)N[C@@H](CC(C)C)C(=O)N[C@H](C(=O)N[C@@H](CCCCN)C(=O)N[C@@H](CCCCN)C(=O)N[C@@H](CC(C)C)C(=O)N[C@H](C(=O)N[C@@H](CCCCN)C(=O)N[C@@H](CCCCN)C(=O)N[C@@H](CC(C)C)C(=O)N[C@@H](CCCCN)C(=O)N[C@@H](CCCCN)C(=O)N[C@@H](C)C(=O)N[C@@H](CC(C)C)C(=O)N[C@@H](CCCCN)C(=O)O)C(C)C)C(C)C	HeLa	MTT		64 mg/L	relative to: untreated	cell growth	70.4% and 71.6% and 69.6%
CC(C)(C)C(=O)OCOP(=O)(OCOC(=O)C(C)(C)C)C1CCCN(O)C1=O (stereo not shown)	CCRF-CEM					CC50	> 100 µM
O=C1NC2(CC2)COc2ncc(F)cc2[C@H]2COCCN2c2ccn3ncc1c3n2			Sprague-Dawley rat, male, testes	oral, 5 mg/kg/day, 4 weeks dosing, end of recovery		organ-to-brain weight ratio	151 ± 13.6%
NC(=O)N/N=C/c1ccc(OCc2ccccc2)cc1	IMR-32	MTT		50 µg/mL, 24 h	relative to: untreated control	viability	83.7%
CC[C@H](C)[C@H](NC(=O)[C@H](Cc1c[nH]c2ccccc12)NC(=O)[C@H](Cc1ccc(O)cc1)NC(=O)[C@H](CCCCN)NC(=O)[C@H](CC(C)C)NC(=O)[C@H](CO)NC(=O)[C@@H](N)Cc1ccccc1)C(=O)N[C@@H](CCCNC(=N)N)C(=O)N[C@@H](Cc1ccc(O)cc1)C(=O)N[C@@H](CCCCN)C(=O)N[C@@H](CCCNC(=N)N)C(=O)N[C@@H](CCC(N)=O)C(=O)NCC(=O)N[C@@H](C)C(=O)N[C@@H](C)C(=O)N[C@@H](CCCNC(=N)N)C(=O)N[C@@H](Cc1ccccc1)C(N)=O	rat erythrocytes			200 µM, 60 min, 37 °C		hemolysis	4.2 ± 0.1%
CC(=O)NCC(=O)N[C@@H](CCCNC(=N)N)C(=O)N[C@@H](CCCCN)C(=O)N[C@@H](CCCCN)C(=O)N[C@@H](CCCNC(=N)N)C(=O)N[C@@H](CCCNC(=N)N)C(=O)N[C@@H](CCC(N)=O)C(=O)N[C@@H](CCCNC(=N)N)C(=O)N[C@@H](CCCNC(=N)N)C(=O)N[C@@H](CCCNC(=N)N)C(=O)N1CCC[C@H]1C(=O)N[C@@H](CCC(N)=O)C(N)=O	HEK-293T	subcellular fractionation LC-MS	cytoplasmic fraction	20 µM, 24 h		concentration	25.7 nM and 26.4 nM and 25.2 nM

For quick reference, copied from above:
Structure (SMILES)	target or system	test	test system	setting	how to read	quantity	value
CC[C@H](C)[C@H](NC(=O)[C@H](Cc1c[nH]c2ccccc12)NC(=O)[C@H](CCCCN)NC(=O)[C@H](CC(C)C)NC(=O)[C@@H](NC(=O)[C@@H](NC(=O)CNC(=O)[C@H](CCCCN)NC(=O)[C@H](Cc1c[nH]cn1)NC(=O)[C@H](CCCCN)NC(=O)[C@H](Cc1c[nH]c2ccccc12)NC(=O)[C@H](C)NC(=O)[C@H](CC(C)C)NC(=O)[C@H](CO)NC(=O)[C@@H](NC(=O)[C@H](Cc1ccc(O)cc1)NC(=O)[C@H](CCCCN)NC(=O)[C@H](CCC(N)=O)NC(=O)CNC(=O)[C@H](CCCCN)NC(=O)[C@@H](NC(=O)[C@H](C)NC(=O)[C@H](CC(C)C)NC(=O)[C@H](Cc1ccccc1)NC(=O)[C@H](CCC(N)=O)NC(=O)[C@@H](NC(=O)[C@H](CC(C)C)NC(=O)[C@H](CCCCN)NC(=O)[C@H](CCSC)NC(=O)[C@H](Cc1ccccc1)NC(=O)[C@H](C)NC(=O)[C@H](C)NC(=O)[C@@H](N)CCSC)[C@@H](C)CC)[C@@H](C)O)C(C)C)[C@@H](C)O)[C@@H](C)CC)C(=O)N[C@@H](CC(N)=O)C(N)=O	human erythrocytes	hemolysis		pH 7.2	relative to: water complete hemolysis	HD50	200 µg/mL
C#CCNC(=O)C[C@H](Cc1ccc(F)cc1)NC(=O)[C@@H](Cc1ccc(Cl)cc1Cl)NC(=O)[C@H](N)Cc1ccccc1C#N	HEK-293T	LC-MS, digitonin-released cytosol		10 µM, 4 h		cytosolic concentration	10 µM and 9.1 µM and 10.5 µM
CC(C)[C@H](NC(=O)CNC(=O)CNC(=O)[C@H](Cc1ccc(O)cc1)NC(=O)[C@H](CS)NC(=O)[C@@H](NC(=O)[C@H](Cc1c[nH]c2ccccc12)NC(=O)[C@H](Cc1ccccc1)NC(=O)[C@H](CS)NC(=O)[C@H](Cc1c[nH]c2ccccc12)NC(=O)[C@@H](N)CCCNC(=N)N)C(C)C)C(=O)N[C@@H](CS)C(=O)N[C@@H](Cc1ccc(O)cc1)C(=O)N[C@@H](CCCNC(=N)N)C(=O)N[C@@H](CCCNC(=N)N)C(=O)N[C@@H](CS)C(=O)N[C@@H](CCCNC(=N)N)C(=O)O	rat erythrocytes	haemolysis		1 h, 37 °C, 2% erythrocytes in PBS		HC50	2.98 log10 µg/mL
